Experimental data pooled from the literature.
Every numbered part comes from another study and shows a few of its results, in no order.

Set 1
Target: Sal-like protein 4, full length isoform B (SALL4, Homo sapiens, UniProt Q9UJQ4-2, residues 1-616)
Method: universal PBM
Molecule type: double-stranded DNA, one strand shown
Sample: in vitro
Tested at: not given
Notes: 8-mer, flanks averaged, mean of replicates
Reading: higher = stronger binding
Quantity: E-score
Oligonucleotide = AGTCTTGA; result = 0.023
Oligonucleotide = CGCTATAC; result = 0.0509
Oligonucleotide = ACGGGACA; result = -0.155
Oligonucleotide = ACTCCAGT; result = 0.0408
Oligonucleotide = CACGACAC; result = -0.0342
Oligonucleotide = ACCGCAAG; result = -0.044
Oligonucleotide = GGGGGTTA; result = -0.0227
Oligonucleotide = AGTAATCC; result = 0.161
Oligonucleotide = GAATACAC; result = 0.158
Oligonucleotide = GGAAAACC; result = -0.152
Oligonucleotide = ATAGGGGA; result = 0.0713
Oligonucleotide = ACATGACC; result = 0.0621
Oligonucleotide = CGTATCCC; result = -0.122
Oligonucleotide = ACATGTGC; result = 9e-05
Oligonucleotide = CAGAACAC; result = -0.0965
Oligonucleotide = GTAGACGA; result = 0.0382
Oligonucleotide = GACGCCAC; result = -0.253
Oligonucleotide = GGATTCCC; result = -0.299
Oligonucleotide = GGGGTCTA; result = -0.103
Oligonucleotide = CCCCCGAA; result = -0.00517
Oligonucleotide = CCGGTATC; result = -0.219
Oligonucleotide = ATCTACAC; result = 0.0599
Oligonucleotide = GAGACTGA; result = -0.0844
Oligonucleotide = CACCGTGG; result = -0.343
Oligonucleotide = CTGGCGAA; result = -0.199

Set 2
Target: Histone acetyltransferase KAT6A, winged helix 2, GST fusion (KAT6A, Homo sapiens, UniProt Q92794, residues 85-181)
Method: protein binding microarray
Molecule type: double-stranded DNA, one strand shown
Sample: in vitro
Tested at: not given
Notes: 8-mer, flanks averaged, mean of 2 arrays, mostly near background
Relative to: not given
Reading: higher = stronger binding
Quantity: E-score
Target sequence (chain): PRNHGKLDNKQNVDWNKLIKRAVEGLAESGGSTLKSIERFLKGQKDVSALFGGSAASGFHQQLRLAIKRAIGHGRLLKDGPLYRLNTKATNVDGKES
Oligonucleotide = CATGTCCG; result = -0.176
Oligonucleotide = AAACATGT; result = -0.155
Oligonucleotide = ATCCTCGC; result = 0.142
Oligonucleotide = CTACGTCA; result = -0.0482
Oligonucleotide = AGAACACA; result = 0.0799
Oligonucleotide = TGGCCCCA; result = -0.141
Oligonucleotide = ATATAGCG; result = -0.164
Oligonucleotide = TGACTCCA; result = -0.119
Oligonucleotide = AAAGGCCT; result = -0.162
Oligonucleotide = CGTGAACG; result = -0.0485
Oligonucleotide = ATCAAGAC; result = 0.0616
Oligonucleotide = AAATTACC; result = -0.128
Oligonucleotide = GAGCATTA; result = -0.0134
Oligonucleotide = GTAAAAAC; result = -0.0394
Oligonucleotide = CGAGTCGA; result = 0.0716
Oligonucleotide = GAAGCTCC; result = 0.0226
Oligonucleotide = ACGGTCTA; result = -0.154
Oligonucleotide = AACCTCGG; result = 0.0918

Set 3
Target: PABPC1L2, full length, GST fusion (mouse, UniProt A0ABA7IW68)
Method: RNAcompete
Molecule type: RNA
Sample: in vitro
Tested at: 20 nM
Notes: 7-mer, probes averaged, single round
Relative to: mean of 7-mers
Reading: higher = stronger binding
Quantity: 7-mer Z-score
Construct (chain): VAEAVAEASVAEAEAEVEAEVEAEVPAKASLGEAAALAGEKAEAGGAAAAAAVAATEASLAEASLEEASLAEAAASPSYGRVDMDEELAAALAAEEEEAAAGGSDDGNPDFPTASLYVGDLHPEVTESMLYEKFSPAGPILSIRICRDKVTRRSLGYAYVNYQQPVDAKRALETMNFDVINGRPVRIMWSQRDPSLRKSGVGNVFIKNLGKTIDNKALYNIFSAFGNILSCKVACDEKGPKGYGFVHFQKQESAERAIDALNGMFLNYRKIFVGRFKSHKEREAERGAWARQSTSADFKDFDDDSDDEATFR
Oligonucleotide = GCUAACG; result = -0.249
Oligonucleotide = UUUCAAC; result = -0.0772
Oligonucleotide = UCAAUCU; result = -0.117
Oligonucleotide = AGGGAGA; result = 0.211
Oligonucleotide = ACCGCAA; result = -0.05
Oligonucleotide = GGGUGCU; result = 0.2
Oligonucleotide = GUAUAGG; result = -0.0409
Oligonucleotide = CGAGACC; result = -0.0319

Set 4
Target: Interferon regulatory factor 7, full length, phosphomimetic (IRF7, Homo sapiens, UniProt Q92985, residues 1-503, S471D/S472D/S475D/S476D/S477D/S483D/S484D/S487D)
Method: protein-binding microarray
Molecule type: double-stranded DNA, one strand shown
Sample: in vitro
Tested at: 2200 nM top
Notes: 60-bp whole probe
Together with: salmon DNA 0.4 mg/ml
Relative to: random background probes
Reading: higher = stronger binding
Quantity: fitted relative affinity
Shared flanks, not repeated: GCCTAGCAC … GTCTTGATTCGCTTGACGCTGCTG
Target sequence (chain): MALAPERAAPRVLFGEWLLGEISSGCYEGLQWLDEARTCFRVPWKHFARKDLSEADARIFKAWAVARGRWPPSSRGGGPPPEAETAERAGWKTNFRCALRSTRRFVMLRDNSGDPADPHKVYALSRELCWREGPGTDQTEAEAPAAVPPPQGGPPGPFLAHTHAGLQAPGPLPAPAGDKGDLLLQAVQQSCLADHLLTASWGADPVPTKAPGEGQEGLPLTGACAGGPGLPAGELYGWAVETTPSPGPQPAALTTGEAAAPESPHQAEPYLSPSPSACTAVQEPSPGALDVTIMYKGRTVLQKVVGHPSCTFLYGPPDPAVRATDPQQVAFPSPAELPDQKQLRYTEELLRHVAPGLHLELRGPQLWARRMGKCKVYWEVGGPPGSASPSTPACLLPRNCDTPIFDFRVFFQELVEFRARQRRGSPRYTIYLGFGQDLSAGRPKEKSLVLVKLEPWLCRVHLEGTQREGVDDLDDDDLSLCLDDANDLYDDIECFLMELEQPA
Oligonucleotide = CTTTGACTCTTTCTGTCAGTGTGCTAG; result = 1.29 z-score
Oligonucleotide = GACGGTCTAGGTTTCGGGACGTGCTAG; result = 2.22 z-score
Oligonucleotide = TTAGGTTTCGGACTGGGTCAGTGCTAG; result = 3.25 z-score
Oligonucleotide = CTCATTCTCCACTTGTGTTTGTGCTAG; result = 2.58 z-score
Oligonucleotide = GACGATATCATACTGGAGACGTGCTAG; result = 0.0189 z-score
Oligonucleotide = TTAGGACCGGGGTATCGGTTAGTGCTA; result = -0.843 z-score
Oligonucleotide = GACGGTTTCCTACTGCTGACGTGCTAG; result = 2.03 z-score
Oligonucleotide = TTAGGTTTCCTTGTCCTTTAGTGCTAG; result = 1.52 z-score
Oligonucleotide = TTAGGTCTGCTACTGCTTTAGTGCTAG; result = 0.149 z-score
Oligonucleotide = TTAGGACTGGGTATCGATTAGTGCTAG; result = -0.232 z-score
Oligonucleotide = TCACCTTTTGCTTTACTACTGTGCTAG; result = 3.57 z-score
Oligonucleotide = TCATCTTTTCATTACTGACTGTGCTAG; result = 1.87 z-score
Oligonucleotide = GACTGACTGGGTCTCGGGACGTGCTAG; result = -0.55 z-score
Oligonucleotide = TGAGAACTGGGGTATCGATTAGTGCTA; result = -0.163 z-score
Oligonucleotide = GACGGTTTCAGTTCCGAGACGTGCTAG; result = 3.59 z-score

Set 5
Target: RNA binding protein fox-1 homolog 2, RRM domain, GST-SBP tag (RBFOX2, Homo sapiens, UniProt O43251-10, residues 100-194)
Method: RNA Bind-n-Seq
Molecule type: RNA
Sample: in vitro
Tested at: 365 nM
Notes: natural RNA segment, single round, ends assumed
Relative to: no-protein control
Reading: higher = stronger binding
Quantity: RBNS enrichment (R)
Target sequence (chain): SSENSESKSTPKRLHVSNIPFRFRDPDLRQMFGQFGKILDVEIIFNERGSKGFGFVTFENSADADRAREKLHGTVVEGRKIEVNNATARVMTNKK
Oligonucleotide = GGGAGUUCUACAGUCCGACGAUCUCUAAGACACAGAAAUGUAUUUAAUAAAAACCUCGAGAGAGUGAUGGGUGGAACCCCUUCUCCUUGAAAGUGUGUACAGAUAUUCCAUUUUGUUUGGAUAUAGUUUAUAGUGGAAUUCUCGGGUGCCAA; result = 0.401
Oligonucleotide = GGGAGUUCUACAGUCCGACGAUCCUGCCCCACAGCAUCUGUGCCAUGCAAUGAGGGCUUUGGUUCCUGGCUUCUGGGAGCCUUUUGACAGCUGGUCCCUGCCUCGGUUGAUUGUGCAUGGAACUAAAAUGUUAUGGAAUUCUCGGGUGCCAA; result = 1.13
Oligonucleotide = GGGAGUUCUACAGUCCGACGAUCGAGAGCAAACAAACAGUCAUGGUCUAAAACCCACAUAGCACUUUGCUCUUAGUUACAUGUAAAAUUUUAGAUUUCUAAAACAGGUGGGCAAUCAUUUUGAAUACUGUUCUUGGAAUUCUCGGGUGCCAA; result = 0.342
Oligonucleotide = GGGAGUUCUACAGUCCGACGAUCCCUCUUACCUUGCCCUGUUCCCGGUGCCUUCUUGCGAAUGAGCUAGAGUAGUUUAGGGUCCCUGACUCGAACCCUCACUGUGCCUUCUGCCGGGGAGGAGGGGCUCCUGGUGGAAUUCUCGGGUGCCAA; result = 0.473
Oligonucleotide = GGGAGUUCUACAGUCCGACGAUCUGGAAUUAAUCACUCAACAGGUAUAGUAUUACGACUCAUGUUUACUUUUUAAAAUGAUUUAGACCGAUUUUCAGAUUUUAUUUCGUUAUGAUUAAAGAUGUCUCAUGUACUGGAAUUCUCGGGUGCCAA; result = 0.381
Oligonucleotide = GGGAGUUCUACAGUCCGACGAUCCAGGAGAAUUGCUUGAACUCAGAAGGCGGAGGCUGCAGUGAGCCGAGAUCGUGCCACUGCACUCCAGCCUGGUCAACAGAGCAAGACUCCAUCUCGAAGAAAAAAAAAAAUGGAAUUCUCGGGUGCCAA; result = 0.33
Oligonucleotide = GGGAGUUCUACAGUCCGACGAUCUGCAACUAAUGGUUGUGCCAGCUAUUCCCUAGAGGUCCUAGACACACAGACUGCCUUAGCCCCCACACCUCUGUCCCUAGGAGAAUGAAUGGGCAGAGUGGAGCUGACACUGGAAUUCUCGGGUGCCAA; result = 1.51
Oligonucleotide = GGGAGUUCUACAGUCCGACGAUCCAACGACGUGGACCUGCGUGGGGACCAGCCCUCCCUGGGCAGCUUCACCUACUCCACCUCUGCGCCUGGCCCAGCCCUUUCCCCGUCGGUGCCCCUGCACUACCUGCCCCUGGAAUUCUCGGGUGCCAA; result = 0.72

Repeated from above (set 1):
Oligonucleotide = CCCCCGAA; result = -0.00517
Oligonucleotide = CCGGTATC; result = -0.219
Oligonucleotide = ATCTACAC; result = 0.0599
Oligonucleotide = GAGACTGA; result = -0.0844
Oligonucleotide = CACCGTGG; result = -0.343
